{"data": "Experimental data gathered from unrelated publications", "note": "Each line is one published result; not all experiments were run side by side. Values joined by “and” are separate records of one study, mostly repeats; a detail may differ. ± marks the error that the study gave."}
{"SMILES": "CN(C)CCCOc1cc(NC(=O)c2cc(Cl)cc(C(=O)Nc3cc(OCCCN(C)C)c4ccccc4n3)n2)nc2ccccc12", "target": "K-ras G-quadruplex DNA", "assay": "FRET melting", "setting": "1 µM, pH 7.4, with: 60 mM potassium", "endpoint": "ΔTm", "result": "18.3 ± 0.4 K"}
{"SMILES": "COc1ccc(F)cc1C(=O)NCc1ccc(-c2nn([C@@H](C)C(F)(F)F)c(N)c2C(N)=O)cc1", "target": "MEK1/MEK2 human", "assay": "probe binding, competitive chemoproteomics", "test system": "human PBMCs", "setting": "0.01 µM", "endpoint": "inhibition", "result": "0.2%"}
{"SMILES": "Nc1cc(COc2c(Cl)cc(C[C@H](N)C(=O)O)cc2Cl)c2oc(-c3ccccc3)nc2c1", "target": "B0AT1, LAT1, ASCT2", "assay": "radiolabelled uptake", "test system": "CHO-BC cells", "setting": "3 µM, without Na+, with: L-[14C]leucine, GPNA 3 mM", "endpoint": "L-leucine uptake", "result": "5.12 nmol/6 min/mg protein and 4.87 nmol/6 min/mg protein and 4.3 nmol/6 min/mg protein"}
{"SMILES": "C/C=C(/C)C(=O)OC[C@H]1[C@@H](Cc2ccc(C(F)(F)F)cc2)CO[C@@H]1c1ccc(F)cc1", "target": "NF-κB", "assay": "reporter gene", "test system": "HEK293/NF-κB-luc", "setting": "4 h, with: TNFα 2 ng/mL", "endpoint": "IC50", "result": "≥ 20000 nM"}
{"SMILES": "COc1c(O)cc2oc3cc(O)c(CC=C(C)C)c(O)c3c(=O)c2c1CC=C(C)C", "target": "MyBP-C and MYH", "test system": "iPSC-derived cardiomyocytes (human)", "setting": "concentration not given", "how to read": "baseline: plate controls (SD units)", "endpoint": "MyBP-C/MYH ratio", "result": 8.5}
{"SMILES": "Cc1ncsc1-c1ccc([C@H](C)NC(=O)[C@@H]2C[C@@H](O)CN2C(=O)[C@@H](NC(=O)COCCOCCOCCOCCOCC(=O)N2CC(Nc3cc(C(=O)NC[C@H](O)CN4CCc5ccccc5C4)ncn3)C2)C(C)(C)C)cc1", "target": "human MEP50", "assay": "degrader, Western blot", "test system": "MDA-MB-468", "setting": "2 µM", "endpoint": "time to degradation", "result": "> 48 h"}
{"SMILES": "CC(=O)NCCCC[C@H](NC(=O)[C@H](CC(=O)O)NC(=O)[C@H](CO)NC(C)=O)C(=O)Nc1ccc2c(C)cc(=O)oc2c1", "target": "human Y386F/Y782F mutant enzyme", "assay": "substrate, fluorogenic", "endpoint": "kcat", "result": "0.00021 ± 1e-05 s⁻¹"}
{"SMILES": "NCCCOc1cc(NC(=O)c2cccc(C(=O)Nc3cc(OCCCN)c4ccccc4n3)n2)nc2ccccc12", "target": "K-ras G-quadruplex DNA", "assay": "FRET melting", "setting": "1 µM, pH 7.4, with: 60 mM potassium", "endpoint": "ΔTm", "result": "18 ± 0.8 K"}
{"SMILES": "CNC(=O)c1ccccc1Nc1cc(Nc2ccc(N3CCOCC3)cc2OC)ncc1C(F)(F)F", "target": "RSK1", "assay": "KINOMEscan", "setting": "1 µM", "how to read": "baseline: control", "endpoint": "remaining binding", "result": "< 10%"}
{"SMILES": "COc1ccc([C@H]2OC[C@H](Cc3ccc(C(C)(C)C)cc3)[C@@H]2CO)cc1OC", "target": "NF-κB", "assay": "reporter gene", "test system": "HEK293/NF-κB-luc", "setting": "4 h, with: TNFα 2 ng/mL", "endpoint": "IC50", "result": "≥ 20000 nM"}
{"SMILES": "O=C(O)CCCCCCC(=O)Nc1ccc([C@H]2O[C@@H](CSc3nc(-c4ccccc4)c(-c4ccccc4)o3)C[C@@H](c3ccc(CO)cc3)O2)cc1", "target": "human Hsp90 alpha/beta and p23", "assay": "protein-protein interaction, split Renilla luciferase BLI", "test system": "HEK293T", "setting": "concentration not given, 24 h", "how to read": "baseline: vehicle", "endpoint": "inhibition", "result": "no effect"}
{"SMILES": "O=C(NCC1CCOCC1)c1n[nH]cc1NC(=O)c1c(F)cccc1F", "target": "human FLT3 ITD", "assay": "scanMAX", "setting": "1 µM", "how to read": "baseline: control", "endpoint": "remaining binding", "result": "83%"}
{"SMILES": "NCCOc1cc(C(=O)Nc2cc(OCCN)c3ccccc3n2)nc(C(=O)Nc2cc(OCCN)c3ccccc3n2)c1", "target": "K-ras G-quadruplex DNA", "assay": "FRET melting", "setting": "1 µM, pH 7.4, with: 60 mM potassium", "endpoint": "ΔTm", "result": "20.2 ± 0.8 K"}
{"SMILES": "CNC(=O)c1cc(Oc2ccc(NC(=O)Nc3ccc(Cl)c(C(F)(F)F)c3)cc2)ccn1", "target": "JNK1α1 (human)", "assay": "kinase activity, inhibitor", "setting": "0.3 µM", "endpoint": "inhibition", "result": "-7%"}
{"SMILES": "O=C(O)CCCOc1cccc(CNC(=O)C#Cc2cn(Cc3ccc(C(=O)O)cc3)c(=O)[nH]c2=O)c1", "target": "MMP-2", "assay": "inhibitor, FRET", "setting": "10 µM", "endpoint": "remaining MMP-2 activity", "result": "96 ± 2%"}
{"SMILES": "CC[C@@H]1[C@H](F)C(=O)N[C@@H]1COc1nccc2cc(C(N)=O)c(OC)cc12", "target": "CK1 delta and epsilon", "assay": "ATP-site probe binding, inhibitor, ActivX ATP probe profiling", "test system": "THP-1 cell lysate", "setting": "0.04 mM, probe site Lys2", "endpoint": "inhibition", "result": "20.3%"}
{"SMILES": "COc1cnc(Nc2cccc(S(N)(=O)=O)c2)nc1N1CCN(c2ccccc2)C(=O)C1", "target": "human FLT3 ITD", "assay": "binding, KINOMEscan", "setting": "1000 nM", "how to read": "lower = stronger binding", "endpoint": "percent of control", "result": "91%"}
{"SMILES": "CC(=O)N[C@@H](CCCNC(=N)N)C(=O)N[C@@H](CCCNC(=N)N)C(=O)N[C@@H](Cc1ccc2ccccc2c1)C(=O)N[C@H]1CSSC[C@@H](C(=O)N[C@@H](CCCNC(=N)N)C(N)=O)NC(=O)[C@H](CCCNC(N)=O)NC(=O)[C@H](CCCNC(=N)N)NC(=O)[C@H](Cc2ccc(O)cc2)NC(=O)[C@@H]2CCCN2C(=O)[C@@H](CCCCNC(=O)CCCNC(=O)[C@H](CCCCNC(=O)CCCCCN2C(=CC=CC=CC3=[N+](CCCCS(=O)(=O)O)c4ccc(S(=O)(=O)[O-])cc4C3(C)C)C(C)(C)c3cc(S(=O)(=O)O)ccc32)NC(=O)CN(CCN(CC(=O)O)CC(=O)O)CCN(CC(=O)O)CC(=O)O)NC(=O)[C@H](CCCNC(=N)N)NC(=O)[C@H](CCCNC(N)=O)NC(=O)[C@H](Cc2ccc(O)cc2)NC1=O (single isomer, unassigned)", "target": "human CXCR4", "assay": "longitudinal confocal imaging", "test system": "MDA-MB-231 CXCR4", "setting": "room temperature", "endpoint": "time to internalisation", "result": "≤ 15 min"}
{"SMILES": "Oc1ccccc1-c1n[nH]cc1-c1ccnc2ccccc12", "target": "FPK1 (Candida albicans)", "assay": "kinase binding, MIB/MS competition", "test system": "Candida albicans lysate", "setting": "1 µM", "how to read": "baseline: DMSO", "endpoint": "log2 fold change", "result": 0.07}
{"SMILES": "CC(C)C[C@H](NC(=O)[C@@H](CCCCNC(=O)CCCCCN1C(=CC=CC=CC2=[N+](C)c3ccc(S(=O)(=O)O)cc3C2(C)C)C(C)(C)c2cc(S(=O)(=O)[O-])ccc21)NC(=O)[C@H](Cc1ccc(O)cc1)NC(=O)[C@H](CO)NC(=O)[C@H](Cc1c[nH]c2ccccc12)NC(=O)[C@H](Cc1c[nH]cn1)NC(=O)[C@@H]1CCC(=O)N1)C(=O)N[C@@H](CCCNC(=N)N)C(=O)N1CCC[C@H]1C(=O)NCC(N)=O", "target": "GnRH receptor (rat)", "assay": "agonist, Western blot", "setting": "10 nM, 60 min", "how to read": "baseline: basal", "endpoint": "ERK1/2 phosphorylation", "result": "3.2 ± 0.89 fold"}
{"SMILES": "Cl.NCCC[C@H](N)C(=O)O", "target": "MyBP-C and MYH", "test system": "iPSC-derived cardiomyocytes (human)", "setting": "concentration not given", "how to read": "baseline: plate controls (SD units)", "endpoint": "MyBP-C/MYH ratio", "result": 14.2}
{"SMILES": "COc1cc(C(=O)Nc2cc(OCCN3CCCC3)c3ccccc3n2)nc(C(=O)Nc2cc(OCCN3CCCC3)c3ccccc3n2)c1", "target": "K-ras G-quadruplex DNA", "assay": "FRET melting", "setting": "1 µM, pH 7.4, with: 60 mM potassium", "endpoint": "ΔTm", "result": "17.8 ± 0.7 K"}
{"SMILES": "CC(C)N=C(N)c1ccc2nc(-c3ccc(OCc4cccc(COc5ccc(-c6nc7ccc(C(N)=NC(C)C)cc7[nH]6)cc5)c4F)cc3)[nH]c2c1", "target": "PU.1 (mouse)", "assay": "reporter gene, inhibitor, luciferase reporter", "test system": "BV-2 cells PU.1-luciferase", "setting": "concentration not given", "how to read": "baseline: DMSO", "endpoint": "inhibition", "result": "11.8 ± 22.3%"}
{"SMILES": "c1coc(-c2n[nH]cc2-c2ccnc3ccccc23)c1", "target": "BCK1 (Candida albicans)", "assay": "kinase binding, MIB/MS competition", "test system": "Candida albicans lysate", "setting": "10 µM", "how to read": "baseline: DMSO", "endpoint": "log2 fold change", "result": -0.17}
{"SMILES": "COc1cc(C(=O)Nc2cc(OC)c3ccccc3n2)nc(C(=O)Nc2cc(OC)c3ccccc3n2)c1", "target": "K-ras G-quadruplex DNA", "assay": "FRET melting", "setting": "1 µM, pH 7.4, with: 60 mM potassium", "endpoint": "ΔTm", "result": "2.3 ± 0.3 K"}
{"SMILES": "CSCC[C@@H]1NC(=O)[C@H](C)NC(=O)[C@H](CCC(N)=O)NC(=O)[C@H](CCCNC(=N)N)NC(=O)[C@H](Cc2c[nH]c3ccccc23)NC(=O)CNC(=O)[C@H](CCSC)NC(=O)[C@@H]2CCCN2C(=O)[C@H](C)NC(=O)[C@@H](NC(=O)CN)CSSC[C@@H]2NC(=O)CNC(=O)[C@H](C)NC(=O)[C@H](CC(C)C)NC(=O)[C@@H]3CSSC[C@@H](C(=O)NCC(=O)O)NC(=O)[C@H](Cc4ccccc4)NC(=O)CNC(=O)[C@H](CC(N)=O)NC(=O)[C@@H]4CCCN4C(=O)CNC(=O)[C@H](CSSC[C@H](NC(=O)[C@H](CCCNC(=N)N)NC1=O)C(=O)N[C@@H](CCCCN)C(=O)N[C@@H](CCC(N)=O)C(=O)N[C@@H](CC(=O)O)C(=O)N[C@@H](CO)C(=O)N[C@@H](CC(=O)O)C(=O)N3)NC(=O)[C@H](C(C)C)NC2=O", "target": "classical complement pathway", "assay": "inhibitor, ELISA, measured: C5b-9", "test system": "1% normal human serum", "setting": "1 h, 37 °C, IgM-coated plate, partial inhibition", "endpoint": "IC50", "result": "1080 nM"}
{"SMILES": "CCCN(CCCCOCCOCCOCCOCC(=O)N[C@H](C(=O)N1C[C@H](O)C[C@H]1C(=O)NCc1ccc(-c2scnc2C)cc1)C(C)(C)C)C[C@@H](C)NC(=O)c1ccc(-c2noc(C(F)(F)F)n2)cc1", "target": "class I HDAC (human)", "assay": "inhibitor", "test system": "Jurkat", "endpoint": "IC50", "result": "2100 nM"}
{"SMILES": "CN(C)c1ccc(/C=C2\\C(=O)Nc3ccccc32)cc1", "target": "MYC", "assay": "oncogenic transformation, inhibitor", "test system": "chicken embryo fibroblasts expressing MYC", "setting": "5 µM", "how to read": "baseline: untreated", "endpoint": "focus formation", "result": "< 3%"}
{"SMILES": "CC(=O)ON=C1C=CC(=C(C#N)c2ccccc2)C=C1", "target": "pig CK1 delta/epsilon", "assay": "enzyme activity, inhibitor, ADP-Glo", "setting": "20 µM, about MIC, with: ATP 10 µM", "endpoint": "remaining activity", "result": "81%"}
{"SMILES": "COc1cc(-c2cc(-c3ccc(N4CCNCC4)cc3)cnc2N)cc(OC)c1OC", "target": "human CK2", "assay": "enzyme activity, inhibitor", "setting": "1 µM", "endpoint": "inhibition", "result": "3%"}
{"SMILES": "NCCOc1cc(NC(=O)c2cccc(C(=O)Nc3cc(OCCN)c4ccccc4n3)n2)nc2ccccc12", "target": "K-ras G-quadruplex DNA", "assay": "FRET melting", "setting": "1 µM, pH 7.4, with: 60 mM potassium", "endpoint": "ΔTm", "result": "15.2 ± 0.7 K"}
{"note": "For quick reference, copied from above:"}
{"SMILES": "CC(=O)ON=C1C=CC(=C(C#N)c2ccccc2)C=C1", "target": "pig CK1 delta/epsilon", "assay": "enzyme activity, inhibitor, ADP-Glo", "setting": "20 µM, about MIC, with: ATP 10 µM", "endpoint": "remaining activity", "result": "81%"}
{"SMILES": "COc1cc(-c2cc(-c3ccc(N4CCNCC4)cc3)cnc2N)cc(OC)c1OC", "target": "human CK2", "assay": "enzyme activity, inhibitor", "setting": "1 µM", "endpoint": "inhibition", "result": "3%"}
